Published values from different studies.
Each numbered part is a random draw from the data of one study; scales do not carry over between parts.

Block 1
Target: Replicase polyprotein 1ab, main protease (rep, Severe acute respiratory syndrome coronavirus 2, UniProt P0DTD1)
Observed: enzyme activity
Mode: inhibitor
Concentration: 20 µM
Setting: hit confirmation
| SMILES | inhibition |
| --- | --- |
| O=C(O)[C@H]1O[C@@H](Oc2cc3oc(-c4ccccc4)cc(=O)c3c(O)c2O)[C@H](O)[C@@H](O)[C@@H]1O | 54% |
| N#Cc1c(O)c2c(-c3ccc(-c4ccccc4O)cc3)csc2[nH]c1=O | 9.4% |
| Cc1coc2c1C(=O)C(=O)c1c-2ccc2c(C)cccc12 | 1% |
| NC(Cc1ccc(O)c(O)c1)C(=O)O (stereo not drawn) | 56.6% |

Block 2
Target: Interferon regulatory factor 7, full length, phosphomimetic (IRF7, Homo sapiens, UniProt Q92985, residues 1-503, S471D/S472D/S475D/S476D/S477D/S483D/S484D/S487D)
Method: protein-binding microarray
Molecule type: double-stranded DNA, one strand shown
Sample: in vitro
Concentration: 2200 nM top
Setting: 60-bp whole probe
Together with: salmon DNA 0.4 mg/ml
Reference: random background probes
Direction: higher = stronger binding
Shared flanks, not repeated: GCCTAGCAC … GTCTTGATTCGCTTGACGCTGCTG
Construct (chain): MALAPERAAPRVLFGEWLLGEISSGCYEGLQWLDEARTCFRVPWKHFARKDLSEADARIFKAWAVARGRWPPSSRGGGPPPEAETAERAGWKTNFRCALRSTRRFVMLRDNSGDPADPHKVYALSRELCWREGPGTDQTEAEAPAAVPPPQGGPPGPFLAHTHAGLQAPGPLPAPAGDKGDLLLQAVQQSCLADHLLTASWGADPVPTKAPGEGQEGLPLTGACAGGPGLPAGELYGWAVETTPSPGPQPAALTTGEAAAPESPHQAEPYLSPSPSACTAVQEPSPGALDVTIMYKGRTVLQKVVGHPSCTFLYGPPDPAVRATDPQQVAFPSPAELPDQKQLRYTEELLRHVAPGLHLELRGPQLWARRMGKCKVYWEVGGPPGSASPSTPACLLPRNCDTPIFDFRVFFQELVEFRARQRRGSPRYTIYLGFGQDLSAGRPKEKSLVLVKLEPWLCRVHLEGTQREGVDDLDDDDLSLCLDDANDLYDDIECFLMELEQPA
| Sequence | fitted relative affinity [z-score] |
| --- | --- |
| TAGAGTCTCAACCCCCAATAAGTGCTA | -0.137 |
| TTAGGTTCCGTTTTCCTTTAGTGCTAG | 5.41 |
| GTTTCATTCCTGATCTCTGGGTGCTAG | 2.67 |
| TTAGATTTGAGACTGGATTAGTGCTAG | -0.295 |
| GACCATATCGGGACTGGAGACGTGCTA | -0.362 |
| TCATTTCTACGTCTGATACTGTGCTAG | 2.06 |
| TTAGATCTAAGTATCGATTAGTGCTAG | -0.154 |
| GACGATATCGGGTTTCGAGGCGTGCTA | 1.19 |

Block 3
Cell line: HEK-293T/ACE2
Concentration: concentration not given
Time: 16 (unit not given)
Reference: vehicle
| Structure (SMILES) | viability [%] |
| --- | --- |
| NS(=O)(=O)Cc1noc2ccccc12 | 94.4 |
| CC(=O)Oc1ccccc1C(=O)O | 102 |
| N[C@@H](Cc1cc(I)c(Oc2ccc(O)c(I)c2)c(I)c1)C(=O)O | 98 |
| CCCCN1CCCCC1C(=O)Nc1c(C)cccc1C (stereo not drawn) | 95.4 |
| COCCc1ccc(OCC(O)CNC(C)C)cc1 (stereo not drawn) | 105 |
| O=C(O)[C@@H](S)[C@@H](S)C(=O)O | 86.2 |

Block 4
Target: Replicase polyprotein 1ab, polymerase (rep, Severe acute respiratory syndrome coronavirus 2, UniProt P0DTD1)
Observed: enzyme activity
Mode: inhibitor
Concentration: 20 µM
| Compound | inhibition [%] |
| --- | --- |
| Cc1ccccc1C(C(=O)NC1CCCCC1)N(C(=O)Cn1ccnc1C)c1cccc(F)c1 (stereo not drawn) | -3.25 |
| COc1cc(N2CCN(C)CC2)ccc1Nc1nccc(-c2cn(C)c3cnccc23)n1 | 19.8 |
| CN1CCN(C(c2ccccc2)c2ccc(Cl)cc2)CC1 (stereo not drawn) | -3.87 |
| C[C@H]1CCC/C=C/[C@@H]2C[C@H](O)C[C@H]2[C@H](O)/C=C/C(=O)O1 | 6.74 |
| CCCCc1cc2ccccc2c(OCCN(C)C)n1 | -4.37 |
| Cc1cccn2c(=O)c(-c3nnn[nH]3)cnc12 | -5.21 |
| O=C(CCCCCCCC(=O)NCCO)NCCO | 0.89 |
| Nc1ccc2cc3ccc(N)cc3nc2c1 | -27.3 |
| Clc1cccc(-n2nnnc2NCc2ccccc2Oc2ccccn2)c1Cl | 5.95 |
| CC(C)CCC[C@@H](C)[C@H]1CC[C@H]2[C@@H]3CCC4=CC(=NO)CC[C@]4(C)[C@H]3CC[C@]12C | 1.27 |
| O=C(COc1ccc(Cl)cc1)N1CCN(Cc2ccc3c(c2)OCO3)CC1 | 0.42 |
| c1ccc2sc(SNC3CCCCC3)nc2c1 | 1.69 |
| CC1CC(OC(=O)C(O)c2ccccc2)CC(C)(C)C1 (stereo not drawn) | -8.62 |
| NC(CO)C(=O)NNCc1ccc(O)c(O)c1O (stereo not drawn) | -2.94 |
| CN=c1nc(-c2ccccc2)n(-c2ccccc2)s1 | 0.48 |
| CN1CC[C@@H](NC(=O)Nc2ccc(C#N)cc2)C[C@@H]1c1nc2ccccc2[nH]1 | 1.14 |
| N#Cc1ccccc1-c1cc(-c2ccccn2)cn(-c2ccccc2)c1=O | -5.6 |
| O=[N+]([O-])c1ccc2nc(COCc3nc4ccc([N+](=O)[O-])cc4[nH]3)[nH]c2c1 | -4.84 |
| COc1cc2ncnc(Nc3ccc(Oc4ccccc4)cc3)c2cc1OC | -5.41 |
| Cc1c(N)c(=O)n(-c2ccccc2)n1C | -9.81 |
| COc1ccc(OC)c2c(=S)c3ccccc3[nH]c12 | 11.7 |
| COc1ccc(-n2[nH]c3c4c(ncc3c2=O)CCCCC4)cc1 | 1.01 |
| COC1(C[S@@+]([O-])c2ccccc2)CCN(CCc2c[nH]c3ccc(F)cc23)CC1 | -4.42 |
| Cc1ccccc1N1CCN(S(=O)(=O)C[C@]23CC[C@H](C[C@@H]2NC(=O)[C@@H](N)CCS(C)(=O)=O)C3(C)C)CC1 | 1.76 |
| O=C1[C@H](CC[C@H](O)c2ccc(F)cc2)[C@@H](c2ccc(O)cc2)N1c1ccc(F)cc1 | 1.58 |

Block 5
Target: Sal-like protein 4, full length isoform A (SALL4, Homo sapiens, UniProt Q9UJQ4, residues 1-1053)
UniProt Q9UJQ4, sequence (whole entry, looked up): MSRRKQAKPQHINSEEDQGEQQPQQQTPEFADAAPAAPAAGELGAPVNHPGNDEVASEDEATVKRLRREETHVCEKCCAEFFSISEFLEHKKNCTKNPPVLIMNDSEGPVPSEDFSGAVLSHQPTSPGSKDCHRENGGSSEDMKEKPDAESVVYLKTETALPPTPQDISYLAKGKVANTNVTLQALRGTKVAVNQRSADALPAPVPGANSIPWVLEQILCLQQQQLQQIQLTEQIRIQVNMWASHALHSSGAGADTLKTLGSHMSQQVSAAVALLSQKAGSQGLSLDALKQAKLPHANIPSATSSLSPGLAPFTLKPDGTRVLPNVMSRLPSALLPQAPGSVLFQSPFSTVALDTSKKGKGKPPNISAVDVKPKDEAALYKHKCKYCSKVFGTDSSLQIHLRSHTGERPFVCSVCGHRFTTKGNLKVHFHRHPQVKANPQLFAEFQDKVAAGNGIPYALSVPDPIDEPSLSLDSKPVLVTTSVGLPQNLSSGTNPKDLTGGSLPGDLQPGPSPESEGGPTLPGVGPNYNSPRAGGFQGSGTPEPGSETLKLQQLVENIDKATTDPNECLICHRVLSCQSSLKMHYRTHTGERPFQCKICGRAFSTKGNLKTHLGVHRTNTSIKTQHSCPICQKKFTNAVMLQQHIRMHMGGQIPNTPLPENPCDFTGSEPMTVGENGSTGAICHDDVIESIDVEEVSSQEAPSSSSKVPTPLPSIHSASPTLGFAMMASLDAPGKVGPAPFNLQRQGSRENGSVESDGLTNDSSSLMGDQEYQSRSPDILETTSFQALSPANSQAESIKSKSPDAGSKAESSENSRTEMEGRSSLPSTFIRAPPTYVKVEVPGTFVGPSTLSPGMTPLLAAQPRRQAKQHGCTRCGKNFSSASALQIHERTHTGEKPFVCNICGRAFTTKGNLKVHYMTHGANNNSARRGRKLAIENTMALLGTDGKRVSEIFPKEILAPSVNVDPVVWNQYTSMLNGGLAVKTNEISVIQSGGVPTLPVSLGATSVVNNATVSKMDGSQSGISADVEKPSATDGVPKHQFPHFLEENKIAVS
Method: universal PBM
Molecule type: double-stranded DNA, one strand shown
Sample: in vitro
Concentration: 600 nM
Setting: 8-mer, flanks averaged, mean of replicates
Direction: higher = stronger binding
| Sequence | E-score |
| --- | --- |
| CATGAACC | 0.00428 |
| TAGCTACA | 0.157 |
| CAAGTGCG | -0.159 |
| CTTAATTC | 0.274 |
| AGGGTCCG | -0.383 |
| AACTCATC | 0.0165 |
| CCAAACGA | -0.0358 |
| CCGGTGCG | -0.358 |

A few entries again (block 4):
| Compound | inhibition [%] |
| --- | --- |
| CN1CC[C@@H](NC(=O)Nc2ccc(C#N)cc2)C[C@@H]1c1nc2ccccc2[nH]1 | 1.14 |
| CN=c1nc(-c2ccccc2)n(-c2ccccc2)s1 | 0.48 |
| CCCCc1cc2ccccc2c(OCCN(C)C)n1 | -4.37 |
